Assay results from different studies.
Every numbered part comes from another study and shows a few of its results, in no order.

Sample 1
Target: RNA binding protein fox-1 homolog 2, RRM domain, GST-SBP tag (RBFOX2, Homo sapiens, UniProt O43251-10, residues 100-194)
Technique: RNA Bind-n-Seq
Form: RNA
Sample: in vitro
Tested at: 365 nM
Setting: natural RNA segment, single round, ends assumed
Baseline: no-protein control
Reading: higher = stronger binding
All sequences stand within: GGGAGUUCUACAGUCCGACGAUC … UGGAAUUCUCGGGUGCCAA
Construct (chain): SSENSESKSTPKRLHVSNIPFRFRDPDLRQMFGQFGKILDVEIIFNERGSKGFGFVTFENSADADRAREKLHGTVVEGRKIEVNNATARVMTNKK
| Oligonucleotide | RBNS enrichment (R) |
| --- | --- |
| UCUCCUGAACCAAACAAACCUGUUGGUUGGGAGACUGCCCAGACAUGAUUGAUGACGGGUUCCCGCCUGCUGUCCCCUCCCUGAUCACACAGCUAACGAGGCUGCCUCCA | 0.943 |
| UCAGCCGUGUCUGCAUUGGAGCCUCACUGCAGUGUUCCUGGUGGCUCCUCUUAACUCCUGCUGCUGUCCAUGGGGUUUCCAGAGCCUUCACCUACAGCUCAGUGGGGUUU | 0.356 |
| GUUUCUUAUGUAUCACACAUCCCCCAAAUAAGUGAUUUUUUCCCAGUGCUUUGUACUGUCAACUGCAUUAUCUUUAAUUAUUUAAAGGUAGAAUUAUUUAAUUUUGUGAU | 1.16 |
| CUCCAUUUGAGUAUUUUGUAAUUUUUUUGAAAUAUUUGUGGACAUAAAUAAAACCAAGCUACACUACAGCACCCUGUGUGUUGGCCAGUGCACUGUCUCAUUCUGGAGUG | 0.315 |
| AUUGAGAAUCAUGAUGAACUUUGGGUGUGUCUGUCCUGUGAGGAAGCGUGUCUGGAAAGGGGUUCAUGCCUCUAAGGGGCUUACGGAGAUGCUGAGGUACUGCCUCGCCU | 0.983 |
| AUGAAAGACUCAUUGUCUUUGUAUUCAGCUCUUAAAUAGUGUAACUAUAUCCCCACCUCUGCUUGCUUUCUUUCCCUCCCCUCCAAUGAUAAAGAAAAUGAUAAAUUUUC | 2.81 |
| AGAACUUAGGGUGCAGACUGACUUAUUGAUUUCCACCUUGGCAAUGGCAAUAAAGCAUUUUGUAAGGACUGGUUCUCACUGUCUUUAUGGAGAUAGCCCUGGGGGAUAGU | 0.769 |
| AAGAGUCAUAUUUUUUGGCUUUGUAGAUAAAGACUUAAAUUUUUGUGCAAAAUAGUGGUGGUAAAGCACACAUCAUUGGACUAUGCAAGUUGAUUUCUAGGAGCAGCACU | 0.51 |

Sample 2
Target: TAR DNA-binding protein 43, full length, His tag (TARDBP, Homo sapiens, UniProt Q13148, residues 1-414)
Technique: RNA Bind-n-Seq
Form: RNA
Sample: in vitro
Tested at: 20 nM
Setting: 6-mer, flanks averaged, single round
Together with: 150 mM LiCl
Baseline: input library
Reading: higher = stronger binding
| Oligonucleotide | 6-mer enrichment (R) |
| --- | --- |
| ACACAU | 0.901 |
| CAGCCC | 1.01 |
| GCGCAU | 1 |
| UCGAAG | 0.856 |
| UUGAGC | 0.982 |
| CCUGCG | 0.945 |
| UUUGCC | 1.12 |
| UAGUUU | 1.12 |
| UCUAGC | 0.846 |
| GCCCGA | 1.02 |
| CUACAG | 0.819 |
| AGUCUU | 0.88 |
| AGUUUU | 1.14 |
| GGAUAA | 0.927 |
| UUCAAC | 0.836 |
| CUGGCC | 0.953 |
| CAGGAG | 0.974 |
| CCAAAG | 0.828 |
| CUUAUA | 0.969 |
| GAACGU | 0.902 |
| UCGACA | 0.823 |
| AAUGGC | 0.944 |
| UGUAAA | 0.959 |
| AUGCUC | 0.861 |
| GGGAGG | 1.4 |

Sample 3
Target: RING finger protein unkempt homolog, zinc fingers 1-6, GST-SBP tag (UNK, Homo sapiens, UniProt Q9C0B0, residues 30-357)
Sequence of UniProt Q9C0B0 (30-357, looked up): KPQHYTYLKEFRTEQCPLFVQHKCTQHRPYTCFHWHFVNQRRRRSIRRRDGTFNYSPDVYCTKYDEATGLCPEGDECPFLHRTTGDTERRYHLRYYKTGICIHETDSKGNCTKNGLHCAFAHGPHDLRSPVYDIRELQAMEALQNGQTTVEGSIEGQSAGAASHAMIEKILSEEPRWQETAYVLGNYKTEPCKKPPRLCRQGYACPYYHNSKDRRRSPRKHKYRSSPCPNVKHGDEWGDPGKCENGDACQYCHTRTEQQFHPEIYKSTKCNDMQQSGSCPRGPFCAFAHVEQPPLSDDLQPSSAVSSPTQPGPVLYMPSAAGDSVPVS
Technique: RNA Bind-n-Seq
Form: RNA
Sample: in vitro
Tested at: not given
Setting: RNA with constant flanks, human-mouse chimeric sites, ends assumed
Baseline: input RNA pool
Reading: higher = stronger binding
All sequences stand within: GGGAGUUCUACAGUCCGACGAUC … CAACAGAGGAUUGAGCAUCA
| Oligonucleotide | bound/input enrichment |
| --- | --- |
| UCUUUAAAUGCACUACAACCUUUUCUGACAGUGCUUUCCCUCCCAUAGAUCCACGUUCAAGCUCAAAGGCCAAAACUUUUGCACGGAGCUCAAACAUCUGAUGAAGAAAGAUUUCUGAGA | 0.491 ratio |
| CAACAGAGUCUAGGAUGGGUUCAUUACAUGAUUCAUGAGCCAGAACCGCAUAUUCUUCUCUUUAGACGACCUCUUCCAAAAGAACAACAAAAAUGAAGUUUAUCUGGGAUCAUCUAAUCU | 0.149 ratio |
| ACCUCCCCCUCCCGCCUCACCCCACCCCCGCUUUUUGGAAAGUUUUUGGCGUUUCUUUUCCUUCCCCAUACAAAGUGAUUACAGUUUAGAGUCUAUGUGGGGCUUGAAGGGCUUGACGGA | 0.77 ratio |
| GGGACUGAUUCAUUCCAAGGACAGGCCACCCCAUUUGAUGCCUGGACUGAUGACAGUAUGGAAGGGCCUAGUCAAAAUGUUGAAGCUGAGUCAAUUCAAGAUAAUGCGAGUAUGGAAGAG | 0.447 ratio |
| GAUAGGAAAAGCUUGUUGGAGACCCGCUUGCAUGUCACUGGUAGAGACCUGAGGUGUCAAAUAGCUGAAACUUUCGGAUUUCAAGAAAAUUACAUCAAAAUUGUCAUAAAUAAGAAACAG | 0.544 ratio |
| GAGCCCAGCCGGCAGUUUGUAAAGGACUCAAUUCGGCUGGUUAAAAGAUGCACCAAACCUGAUAGAAAAGAAUUCCAGAAGAUUGCCAUGGCUACAGCUAUAGGAUUUGCUAUAAUGGGA | 0.465 ratio |
| CGGAGCCCUCCUCUCCCACAGGCCCAAGAUAUAACCCACCAGUGCCUUCUGUCUGCUCGUUAGCUUUGUCAAUCACGCCUGUCCUCUCACGCCCACACCAAGUGCCCAAAGUGGGGAGGG | 3.04 ratio |
| CAGCUGCGAGGCCGCGGUUUCCCCCUGGGCCUCCCCAGCAGCAGCCAUGGGCAUCAAGUUUUUAGAAGUUAUCAAACCAUUCUGUGCAGUUCUACCAGAAAUUCAGAAACCGGAAAGGAA | 0.536 ratio |

Sample 4
Target: Sal-like protein 4, full length isoform A (SALL4, Homo sapiens, UniProt Q9UJQ4, residues 1-1053)
Sequence of UniProt Q9UJQ4 (whole entry, looked up): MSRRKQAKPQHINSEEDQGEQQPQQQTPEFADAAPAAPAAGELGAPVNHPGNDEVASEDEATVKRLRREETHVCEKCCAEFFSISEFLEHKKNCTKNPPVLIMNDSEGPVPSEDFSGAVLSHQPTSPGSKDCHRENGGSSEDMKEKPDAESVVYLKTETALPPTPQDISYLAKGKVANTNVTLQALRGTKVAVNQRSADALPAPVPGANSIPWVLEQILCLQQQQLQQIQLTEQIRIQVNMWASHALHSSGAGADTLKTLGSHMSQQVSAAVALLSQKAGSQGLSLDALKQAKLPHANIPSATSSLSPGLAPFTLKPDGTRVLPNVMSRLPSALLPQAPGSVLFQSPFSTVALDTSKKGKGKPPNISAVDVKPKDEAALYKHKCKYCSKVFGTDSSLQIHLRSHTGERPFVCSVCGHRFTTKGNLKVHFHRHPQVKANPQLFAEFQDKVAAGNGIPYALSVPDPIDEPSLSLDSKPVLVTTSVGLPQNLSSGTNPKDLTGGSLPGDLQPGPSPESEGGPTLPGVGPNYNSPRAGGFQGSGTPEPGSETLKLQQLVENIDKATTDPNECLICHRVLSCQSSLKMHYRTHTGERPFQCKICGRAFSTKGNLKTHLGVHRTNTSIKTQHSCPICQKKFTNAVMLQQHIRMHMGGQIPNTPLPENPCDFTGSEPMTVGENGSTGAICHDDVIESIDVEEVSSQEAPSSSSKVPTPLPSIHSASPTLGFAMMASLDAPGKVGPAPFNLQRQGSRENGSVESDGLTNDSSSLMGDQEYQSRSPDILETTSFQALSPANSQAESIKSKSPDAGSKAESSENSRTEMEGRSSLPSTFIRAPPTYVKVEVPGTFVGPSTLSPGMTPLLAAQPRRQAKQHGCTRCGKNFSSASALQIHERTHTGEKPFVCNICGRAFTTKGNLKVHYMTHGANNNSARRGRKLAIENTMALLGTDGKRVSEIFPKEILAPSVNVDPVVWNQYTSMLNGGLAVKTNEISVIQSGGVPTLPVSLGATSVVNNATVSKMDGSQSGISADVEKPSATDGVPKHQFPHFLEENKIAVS
Technique: universal PBM
Form: double-stranded DNA, one strand shown
Sample: in vitro
Tested at: 600 nM
Setting: 8-mer, flanks averaged, mean of replicates
Reading: higher = stronger binding
| Oligonucleotide | E-score |
| --- | --- |
| AAACGGCA | -0.0161 |
| AAGTGACA | 0.213 |
| ACGGGCAG | -0.106 |
| GGCATGTA | 0.11 |
| CAGGCTAG | -0.201 |
| GAGGACCA | -0.224 |
| AAGACGTA | 0.169 |
| ATCAATTC | 0.204 |
| CGGACCGC | -0.344 |
| GCTCCATA | -0.0926 |
| CGCGTTCA | -0.0903 |
| AATGTCCC | -0.0532 |
| CCCTGTCA | -0.112 |
| ACAATAAC | 0.351 |
| GGAGTACA | -0.0291 |
| CGACTTAC | -0.136 |
| CGCAGACC | -0.288 |
| CAGGCCGA | -0.235 |
| AGGGGGGC | -0.383 |
| TAAAGTTA | 0.267 |
| TACAAGAA | 0.258 |

Sample 5
Target: Histone acetyltransferase KAT6A, both winged helices, GST fusion (KAT6A, Homo sapiens, UniProt Q92794, residues 1-181)
Technique: protein binding microarray
Form: double-stranded DNA, one strand shown
Sample: in vitro
Tested at: not given
Setting: 8-mer, flanks averaged, mean of 2 arrays, mostly near background
Baseline: not given
Reading: higher = stronger binding
Construct (chain): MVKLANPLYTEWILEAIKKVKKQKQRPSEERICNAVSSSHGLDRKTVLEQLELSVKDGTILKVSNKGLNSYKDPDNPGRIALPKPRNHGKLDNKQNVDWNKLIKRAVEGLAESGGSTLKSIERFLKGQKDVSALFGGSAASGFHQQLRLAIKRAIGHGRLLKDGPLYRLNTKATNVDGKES
| Oligonucleotide | E-score |
| --- | --- |
| GACACAAA | -0.0113 |
| ACAGCAGC | -0.102 |
| AACTTAGA | -0.0814 |
| GCTATCAA | -0.039 |
| AAGTGAGC | -0.215 |
| GCTCTGCA | -0.0583 |
| CCGCTCGC | 0.305 |
| ACACCTGG | -0.152 |
| CCAACTAA | -0.139 |
| ATTAAATG | -0.152 |
| AAGGAAGA | -0.113 |
| ACCCTGTG | -0.0671 |
| AGGATGTC | -0.0536 |
| GAGACGAA | 0.0694 |
| GAGTCAAC | -0.116 |
| CACCATTC | -0.202 |
| CTGCGACA | 0.0977 |
| ATTGCTTC | -0.00724 |
| AAGAGTCT | -0.155 |
| CTTCTCAA | -0.186 |
| AGACCTTA | -0.0872 |
| ACCGACAA | 0.0128 |
| AGCATGTG | -0.169 |
